Experimental data from different studies.
Every numbered part comes from another study and shows a few of its results, in no order. Several values in a cell are separate wells, animals, samples, runs or records.

Set 1 — organism: Sarcocystis neurona; observed: parasite growth; tested at: 10 µM; notes: secondary screen; endpoint: inhibition
CC[C@]1(O)CC[C@H]2[C@@H]3CCC4=CCCC[C@@H]4[C@H]3CC[C@@]21C: -33.4%
CCN(C(C)=O)c1cccc(-c2ccnc3c(C#N)cnn23)c1: -43.5%
CNC1CC(c2ccc(Cl)c(Cl)c2)c2ccccc21 (centres unmarked): -9.9%
CNC1=Nc2ccc(Cl)cc2C(c2ccccc2)=[N+]([O-])C1: -20.6%
CNC(=O)Oc1ccc2c(c1)[C@]1(C)CCN(C)[C@@H]1N2C.CNC(=O)Oc1ccc2c(c1)[C@]1(C)CCN(C)[C@@H]1N2C.O=S(=O)(O)O: -61%
C[C@]12CC[C@H]3[C@@H](CCC4=CC(=O)CC[C@@]43C)[C@@H]1CC[C@@H]2O: 2.3% and 9%
COc1cc2c(cc1OC)[C@@]13CCN4CC5=CCO[C@H]6CC(=O)N2[C@H]1[C@H]6[C@H]5C[C@H]43: -21.4%

Set 2 — observed: cell-free assay; tested at: 10 µM; endpoint: inhibition
Target: Sodium-dependent serotonin transporter (SLC6A4, Homo sapiens, UniProt P31645)
Chain of UniProt P31645 (whole entry, looked up): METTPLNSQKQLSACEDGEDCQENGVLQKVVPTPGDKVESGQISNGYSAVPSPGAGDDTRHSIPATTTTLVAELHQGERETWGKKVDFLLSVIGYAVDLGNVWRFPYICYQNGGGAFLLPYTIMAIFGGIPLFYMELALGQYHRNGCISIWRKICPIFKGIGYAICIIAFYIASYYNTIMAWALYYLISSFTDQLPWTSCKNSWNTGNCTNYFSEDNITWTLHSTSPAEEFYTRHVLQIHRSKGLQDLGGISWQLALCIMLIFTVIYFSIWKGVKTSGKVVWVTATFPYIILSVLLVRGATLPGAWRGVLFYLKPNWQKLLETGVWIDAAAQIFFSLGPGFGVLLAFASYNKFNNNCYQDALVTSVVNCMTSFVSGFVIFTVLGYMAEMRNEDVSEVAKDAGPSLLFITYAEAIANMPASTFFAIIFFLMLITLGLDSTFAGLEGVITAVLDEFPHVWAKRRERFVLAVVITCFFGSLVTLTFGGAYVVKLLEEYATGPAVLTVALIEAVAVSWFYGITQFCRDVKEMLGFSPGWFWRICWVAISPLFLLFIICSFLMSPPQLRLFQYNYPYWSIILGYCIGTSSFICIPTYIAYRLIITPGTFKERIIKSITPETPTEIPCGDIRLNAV
CCOc1cc(N2C3COCC2CN(C(=O)[C@H]2C[C@H](O)CN2c2ccc(Cl)cc2)C3)ccc1Cl: 33.4%
COc1cc(C(=O)O)ncc1C#Cc1ccccc1NS(=O)(=O)c1cccc2c(N(C)C)ccnc12: 3.99%
O=C(N[C@H]1CCCCC/C=C\C2C[C@@]2(C(=O)O)NC(=O)[C@@H]2C[C@@H](Oc3ccncc3)CN2C1=O)OC1CCCC1 (some centres unmarked): -6.94%
CCC(=NO)C(C)=Cc1ccc(F)c(C)c1: 8.28%
C[C@H](c1ccc(F)cc1)N(Cc1ccc(Cl)c(C(=O)O)c1)C(=O)c1cnc2ccccc2c1: -2.63%
Cn1cc(Cl)c2c(Oc3c(F)cc(Nc4cc(Cl)nc(N)n4)cc3F)ccnc21: -5.34%
NS(=O)(=O)c1cc(NC(=O)Cc2ccccc2)ccc1Oc1cccc(Cl)c1: 22.7%
CN1CCN(c2ccnc(NCCc3ccccc3)n2)CC1: 35.8%
O=C(NNS(=O)(=O)c1ccccc1F)c1cc(F)cc(-c2ccccn2)c1: -16.7%
CCC(F)(F)c1cc(N2CCC(S(C)(=O)=O)CC2)nc2sc(C(N)=O)c(N)c12: 8.94%
O=S(=O)(NC1CCC(c2cc(F)ccc2F)(S(=O)(=O)c2ccc(Cl)cc2)CC1)C(F)(F)F (centres unmarked): -3.67%
CS(=O)(=O)N1CCCC(NC(=O)[C@H](CCC2CCCCC2)NC(=O)c2ccc(CNC(=O)c3cnc4ccccn34)cc2)C1 (some centres unmarked): 19.8%
NS(=O)(=O)c1cc(NC(=O)C2(c3ccccc3Cl)CC2)ccc1Oc1cccc(Cl)c1: 8.86%
COc1ccc2cc(OCC3(C(=O)O)CN(C(=O)c4ccc(F)cc4)C3)ccc2c1: -6.83%
CC1=C(C#N)C(c2ccc3[nH]nc(C)c3c2)C(C#N)=C(C)N1: -3.41%
N#CC1(c2ccccn2)CCN(Cc2cc(C(=O)N3CCCC3)c(=O)n3ccccc23)CC1: -12%
CC1CCN(c2ccnc(NCc3cn(C)cn3)n2)CC1: 5.83%
Nc1nc(NCc2ccccc2)nc(-c2cccc(CO)c2)n1: 9.44%
CCOc1ccc(S(=O)(=O)Nc2ccc(Cl)cc2C#Cc2cnc(C(=O)O)cc2OC)c2ncccc12: 6.49%
Nc1nc(NCc2ccccc2)nc(-c2ccccc2CO)n1: 4.96%
N#CC1(c2ccccn2)CCN(Cc2cc(C(=O)O)c(=O)n3ccccc23)CC1: 19%
Nc1cnc(N2CCc3cc(S(=O)(=O)Nc4c(F)cc(Cl)cc4F)cc(N4CCCC4=O)c32)nc1: 9.34%
O=C(NCCCC1CCCCC1)c1ccc(CNC(=O)c2cnn(-c3ccccc3)c2C(F)(F)F)cc1: 0.18%
c1ccc(N2CCN(Cc3nc4ccccc4[nH]3)CC2)nc1: 17%
Cc1ccc(-c2cnc([C@@]3(O)CC[C@H](C(=O)O)C(C)(C)C3)s2)cc1Nc1cccc(C(F)(F)F)n1: 15.7%

Set 3 — cell line: HEK-293T/ACE2; tested at: 10 µM; time: 16 h; reference: vehicle; endpoint: viability
O=C(OOC(=O)c1ccccc1)c1ccccc1: 101%
CS(=O)(=O)OCCCCOS(C)(=O)=O: 97.3%
Cc1cc2nc3c(=O)[nH]c(=O)nc-3n(C[C@H](O)[C@H](O)[C@H](O)CO)c2cc1C: 100%
CC(C)c1nc(N(C)S(C)(=O)=O)nc(-c2ccc(F)cc2)c1/C=C/[C@@H](O)C[C@@H](O)CC(=O)O: 100%
Cc1cnc(NC(=O)C2=C(O)c3ccccc3S(=O)(=O)N2C)s1: 99.2%
Cc1cc(C2CCCCC2)n(O)c(=O)c1: 74%
COc1ccc2nc(SCc3ncc(C)c(OC)c3C)[nH]c2c1: 102%
CN(C)[C@@H]1C(O)=C(C(N)=O)C(=O)[C@@]2(O)C(O)=C3C(=O)c4c(O)cccc4[C@@](C)(O)[C@H]3C[C@@H]12: 106%
OC[C@H]1O[C@@H](O[C@@H]2[C@@H](CO)OC(O)(CO)[C@H]2O)[C@H](O)[C@@H](O)[C@H]1O (mixture of isomers): 97.6%
C[C@H](CS)C(=O)N1CCC[C@H]1C(=O)O: 99.8%
COc1ccccc1OCC(O)CO (centres unmarked): 102%

Set 4 — cell line: HEK-293T-ACE2-TMPRSS2; method: cell count; tested at: 10 µM; endpoint: viability
O=C(Nc1ccc2c(c1)OCCO2)c1ccccc1-n1ncc(Cl)c(Cl)c1=O: 71%
Oc1ccc(CN2CCN(c3cccc(C(F)(F)F)c3)CC2)c2cccnc12: 66%
CCCCc1ccc(Nc2cc(C)nc(-n3nc(C)cc3C)n2)cc1: 73%
CN(CC1CCCO1)C(=O)c1coc(COc2ccc3c(c2)OCO3)n1 (centres unmarked): 86%
CC(C)CN1CC(C(=O)NCCS(=O)(=O)N2CCCC2)CC1=O (centres unmarked): 65%
CCc1ccc(NC(=O)c2cnc(N3CCN(c4ccccn4)CC3)c3ccccc23)cc1: 71%
CCc1ccccc1-c1ncnc2[nH]ccc12: 67%
COc1ccc2cc3c(N)nn(C(=O)Cc4c[nH]c5ccccc45)c3nc2c1: 89%
Cc1cc2c(C(C)C)c(O)c(O)c(C=O)c2c(O)c1-c1c(C)cc2c(C(C)C)c(O)c(O)c(C=O)c2c1O: 109%
CCOC(=O)c1cnc(S/C=C/C(=O)c2ccc(C)cc2)nc1N: 73%
Cc1oc(-c2ccc(C(F)(F)F)cc2)nc1CN1CCN(c2ccccc2)C(=O)C1: 111%
Cn1c2c(c(=O)n(C)c1=O)C(c1cccc(Br)c1)C1=C(COC1=O)N2 (centres unmarked): 88%
Cc1ccccc1OCCCn1cc(C(=O)c2ccccc2)c2ccccc21: 221%
CS(=O)(=O)c1ncc(Cl)c(C(=O)N2CCN(C(c3ccccc3)c3ccccc3)CC2)n1: 67%
CC(=O)c1ccc(NC(=O)CSc2nnc(-c3nc(-c4ccccc4)no3)n2C)cc1: 107%
NC(=O)C1CC(=O)N(c2ccc3c(c2)OCCO3)C1 (centres unmarked): 66%
CC(C)(C)N1COc2c(cc(Cl)c3cccnc23)C1: 71%
CCc1c(O)cc(O)c(C(=O)c2ccc(OCCN3CCOCC3)c(OC)c2)c1CC(=O)N(CCOC)CCOC: 112%
O=S(=O)(c1ccc(-c2nnc(C3CCC3)o2)o1)N1CCN(C2CCCCC2)CC1: 147%
Cc1sc2nc(CN3CCCC3)nc(Sc3nnnn3C3CCCC3)c2c1C: 68%
O=C(Nc1ccc(Br)cc1)c1c(O)cccc1O: 129%
CC(=O)c1cc2cc3c4c(c2oc1=O)CCCN4CCC3: 132%
CCS(=O)(=O)N1C[C@@H](COC)[C@H](c2ccncc2)C1: 106%
COCCc1noc([C@@H]2CN(Cc3ccc(C)o3)C[C@H]2CO)n1: 90%
CC1CCCCN1Cc1c(O)ccc2cc(-c3nc4ccccc4s3)c(=O)oc12 (centres unmarked): 89%

For quick reference, copied from above (set 2):
O=C(NNS(=O)(=O)c1ccccc1F)c1cc(F)cc(-c2ccccn2)c1: -16.7%
Nc1nc(NCc2ccccc2)nc(-c2cccc(CO)c2)n1: 9.44%
Cc1ccc(-c2cnc([C@@]3(O)CC[C@H](C(=O)O)C(C)(C)C3)s2)cc1Nc1cccc(C(F)(F)F)n1: 15.7%
Nc1nc(NCc2ccccc2)nc(-c2ccccc2CO)n1: 4.96%
N#CC1(c2ccccn2)CCN(Cc2cc(C(=O)O)c(=O)n3ccccc23)CC1: 19%
CCOc1cc(N2C3COCC2CN(C(=O)[C@H]2C[C@H](O)CN2c2ccc(Cl)cc2)C3)ccc1Cl: 33.4%
NS(=O)(=O)c1cc(NC(=O)Cc2ccccc2)ccc1Oc1cccc(Cl)c1: 22.7%
CCC(=NO)C(C)=Cc1ccc(F)c(C)c1: 8.28%
CC1=C(C#N)C(c2ccc3[nH]nc(C)c3c2)C(C#N)=C(C)N1: -3.41%
CN1CCN(c2ccnc(NCCc3ccccc3)n2)CC1: 35.8%
